Measurements pooled from the literature.
Each line is one published result; not all experiments were run side by side. “And” joins repeats or separate records; there may be more than shown. ± gives the spread as reported.
UniProt P30305, sequence (whole entry, looked up): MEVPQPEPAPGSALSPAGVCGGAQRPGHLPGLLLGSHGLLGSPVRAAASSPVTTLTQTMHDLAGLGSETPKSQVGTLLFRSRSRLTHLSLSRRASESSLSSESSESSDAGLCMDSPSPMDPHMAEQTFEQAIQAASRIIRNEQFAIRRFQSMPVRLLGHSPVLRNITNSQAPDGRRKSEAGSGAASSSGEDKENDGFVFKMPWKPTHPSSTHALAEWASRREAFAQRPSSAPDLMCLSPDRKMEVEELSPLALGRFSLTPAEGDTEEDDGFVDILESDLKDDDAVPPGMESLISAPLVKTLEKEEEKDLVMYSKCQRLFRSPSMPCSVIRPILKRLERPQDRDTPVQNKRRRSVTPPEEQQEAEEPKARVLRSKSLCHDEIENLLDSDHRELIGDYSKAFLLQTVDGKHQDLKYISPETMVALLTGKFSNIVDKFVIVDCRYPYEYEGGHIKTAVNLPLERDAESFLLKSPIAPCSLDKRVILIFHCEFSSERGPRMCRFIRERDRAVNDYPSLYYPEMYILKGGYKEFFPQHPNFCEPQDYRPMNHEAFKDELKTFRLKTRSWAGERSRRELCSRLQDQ
UniProt P04843, sequence (whole entry, looked up): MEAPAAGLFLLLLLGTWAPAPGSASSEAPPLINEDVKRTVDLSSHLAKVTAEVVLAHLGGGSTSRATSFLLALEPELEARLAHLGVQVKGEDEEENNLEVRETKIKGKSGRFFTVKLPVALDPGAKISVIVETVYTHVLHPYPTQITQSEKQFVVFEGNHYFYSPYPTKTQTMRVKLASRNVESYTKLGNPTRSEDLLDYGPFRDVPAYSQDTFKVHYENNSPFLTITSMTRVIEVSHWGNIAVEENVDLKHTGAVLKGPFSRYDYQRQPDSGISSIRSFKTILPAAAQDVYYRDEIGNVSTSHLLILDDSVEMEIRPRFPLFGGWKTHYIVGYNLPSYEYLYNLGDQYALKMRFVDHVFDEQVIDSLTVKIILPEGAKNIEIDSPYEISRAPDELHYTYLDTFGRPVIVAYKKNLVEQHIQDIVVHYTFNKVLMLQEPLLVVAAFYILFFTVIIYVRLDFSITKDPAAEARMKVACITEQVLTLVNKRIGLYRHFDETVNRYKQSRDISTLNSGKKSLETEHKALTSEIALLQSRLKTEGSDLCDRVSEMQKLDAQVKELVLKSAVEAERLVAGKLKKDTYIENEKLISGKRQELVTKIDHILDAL

Structure (SMILES)	target or system	test	test system	setting	scale	measurement	result
COc1cc(Nc2ncc(F)c(Nc3ccc4c(n3)NC(=O)C(C)(C)O4)n2)cc(OC)c1OC	CDC25B (Homo sapiens, UniProt P30305)	enzyme activity, inhibitor				IC50	> 10 µM
O=c1ccc2ccccc2o1	NHEK	ER stress, item: BiP		concentration not given, 24 h		chance response	0%
CC(=O)c1c(O)c(C)c(O)c2c1OC1=CC(=O)C(=C(C)NCCCC(=O)O)C(=O)C12C (stereo not shown)	L6 rat skeletal myoblasts	cytotoxicity, Alamar Blue				IC50	39.8 µM
O=S(=O)(c1ccc(O)cc1)c1ccc(O)cc1	HepG2 spheroids, dissociated	annexin V-FITC/PI flow cytometry		10 µM, 96 h		early apoptotic cells	6.28 ± 3.58%
COc1cc2c(Oc3ccc4[nH]c(C)cc4c3F)ccnc2cc1OCC1(N)CC1			paediatric recurrent refractory sarcoma	8 mg/kg		grade 3 Diarrhoea	0%
O=C(Nc1ccc(Oc2ccc(Cl)cc2)c(Cl)c1)c1cc(I)cc(I)c1O	pigeon embryo fibroblasts					CC50	35 µM
N=C(N)NCCC[C@H](NC(=O)[C@H](Cc1c[nH]c2ccccc12)NC(=O)[C@H](CCCNC(=N)N)NC(=O)[C@H](Cc1c[nH]c2ccccc12)NC(=O)[C@H](Cc1c[nH]c2ccccc12)NC(=O)[C@H](Cc1c[nH]c2ccccc12)NC(=O)[C@H](CCCNC(=N)N)NC(=O)[C@H](Cc1c[nH]c2ccccc12)NC(=O)[C@@H](N)CCCNC(=N)N)C(=O)N[C@@H](Cc1c[nH]c2ccccc12)C(N)=O	PK-15					LC50	> 512 µM
CCC(C)(c1ccc(O)cc1)c1ccc(O)cc1	MVLN	alamarBlue		50 µM, 48 h		cell viability	decreased
CC[C@H](C)[C@@H]1NC(=O)[C@@H]2CCCN2C(=O)[C@H](CC(C)C)NC(=O)[C@H](CC(C)C)NC(=O)CNC(=O)[C@@H](NC(=O)[C@@H](NC(=O)[C@H](CC(=O)O)NC(=O)CNC(=O)[C@@H](NC(=O)[C@H](C)NC(=O)CNC(=O)[C@H](CCCCN)NC(=O)[C@H](CC(C)C)NC(=O)[C@H](CC(C)C)NC(=O)[C@H](CCCCN)NC(=O)CNC(=O)[C@@H](NC(=O)[C@@H](N)CC(C)C)C(C)C)C(C)C)C(C)C)CSSC[C@@H](C(=O)O)NC1=O		RNA-seq, item: Ikbke mRNA	mouse traumatic brain injury, frontal cortex and hippocampus	dose not given	relative to: TBI plus compound vs TBI	log2 fold change	-2.34
CC(C)C[C@H](NC(=O)[C@H](C)NC(=O)[C@@H](NC(=O)[C@H](CCCNC(=N)N)NC(=O)[C@H](CC(C)C)NC(=O)[C@H](Cc1c[nH]c2ccccc12)NC(=O)[C@@H]1CCCN1C(=O)[C@@H](N)CCCCN)C(C)C)C(=O)N[C@@H](CS)C(=O)N1CCC[C@H]1C(=O)NCC(=O)O	H9c2	WST-1		8 µM, 24 h		viability	93.8% and 112% and 88.4%
Nc1nc(CC(O)c2ccc(Cl)cc2)c(Br)c(=O)[nH]1 (stereo not shown)	HeLa	cell morphology alteration				minimum cytotoxic concentration	> 100 µM
Cc1cc(C(C)(C)c2ccc(O)c(C)c2)ccc1O	HepG2 spheroids	annexin V-FITC/PI flow cytometry		40 µM, 24 h		necrotic cells	5.49 ± 1.49%
C[C@H]1CN(c2n[nH]c3nc(N[C@H]4CC[C@H](NS(=O)(=O)CCC(F)(F)F)CC4)ncc23)CCO1	Dolichyl-diphosphooligosaccharide--protein glycosyltransferase subunit 1 (Homo sapiens, UniProt P04843)	Kinobeads competition, item: RPN1		0.8 µM, unit not given	relative to: vehicle	remaining binding	1.23
CO[C@H]1C[C@@H]2CC[C@@H](C)[C@@](O)(O2)C(=O)C(=O)N2CCCC[C@H]2C(=O)O[C@H]([C@H](C)C[C@@H]2CC[C@@H](OC(=O)NCCOCCOCCOCCOCCOCCOCCOCCOCCC(=O)N3CCc4cc(Cn5nc(-c6ccc7oc(N)nc7c6)c6c(N)ncnc65)ccc4C3)[C@H](OC)C2)C[C@@H](O)[C@H](C)/C=C(\C)[C@@H](O)[C@@H](OC)C(=O)[C@H](C)C[C@H](C)/C=C/C=C/C=C/1C			patients with advanced solid tumours	intravenous, 12 mg weekly, any grade		decreased appetite leading to dose reduction	0%
CC(C)(c1ccc(O)cc1)c1ccc(O)cc1	HepG2 spheroids	annexin V-FITC/PI flow cytometry		0.10 µM, 96 h		late apoptotic cells	20 ± 11.6%
CC[C@H](C)[C@H](NC(=O)[C@H](CCCCN)NC(=O)[C@H](CC(N)=O)NC(=O)[C@H](CCCNC(=N)N)NC(=O)[C@H](C)NC(=O)[C@H](CC(C)C)NC(=O)[C@H](CC(C)C)NC(=O)[C@H](CCSC)NC(=O)[C@H](Cc1c[nH]cn1)NC(=O)[C@H](CC(C)C)NC(=O)[C@@H](N)CC(C)C)C(=O)N[C@@H](CCCNC(=N)N)C(=O)N[C@H](C(=O)N[C@@H](CC(C)C)C(=O)N[C@@H](CCCCN)C(=O)N[C@@H](CC(N)=O)C(=O)N[C@@H](CC(N)=O)C(=O)N[C@@H](CCSC)C(=O)N[C@@H](Cc1ccccc1)C(=O)N[C@@H](CO)C(=O)N[C@@H](CCCCN)C(=O)N[C@@H](Cc1ccccc1)C(=O)N[C@@H](CCCCN)C(=O)N[C@@H](CCCCN)C(=O)N[C@@H](CC(C)C)C(=O)N[C@@H](CCCCN)C(=O)N[C@@H](CO)C(=O)N[C@@H](CC(C)C)C(=O)O)[C@@H](C)O	PMA-differentiated THP-1	cell viability, MTT		24 h		CC50	25.1 µM

Excerpt of the above:
Structure (SMILES)	target or system	test	test system	setting	scale	measurement	result
N=C(N)NCCC[C@H](NC(=O)[C@H](Cc1c[nH]c2ccccc12)NC(=O)[C@H](CCCNC(=N)N)NC(=O)[C@H](Cc1c[nH]c2ccccc12)NC(=O)[C@H](Cc1c[nH]c2ccccc12)NC(=O)[C@H](Cc1c[nH]c2ccccc12)NC(=O)[C@H](CCCNC(=N)N)NC(=O)[C@H](Cc1c[nH]c2ccccc12)NC(=O)[C@@H](N)CCCNC(=N)N)C(=O)N[C@@H](Cc1c[nH]c2ccccc12)C(N)=O	PK-15					LC50	> 512 µM
